{"data": "Results pooled from the literature", "note": "Each line is one published result; not all experiments were run side by side. Values joined by “and” are separate records of one study, mostly repeats; a detail may differ. Numbers after ± are the reported error."}
{"SMILES": "O=C(Cc1cc(C(F)(F)F)cc(C(F)(F)F)c1)NC1CCOC1=O (centres unmarked)", "tested on": "ExpR1 (Pectobacterium carotovorum)", "assay": "cellulase activity, agonist", "system": "Pectobacterium carotovorum, single-ExpR1 strain", "conditions": "200 µM, 4 h", "how to read": "relative to: OHHL", "quantity": "activation", "result": "9%"}
{"SMILES": "O=C1NC(=O)C(C2C3=C(CCCC3=O)Oc3ccc([N+](=O)[O-])cc32)C(=O)N1 (centres unmarked)", "tested on": "3T3-L1 adipocytes", "assay": "qPCR, item: FAS", "conditions": "IC20, 14 days", "how to read": "relative to: untreated mature adipocytes", "quantity": "mRNA level", "result": "decreased"}
{"SMILES": "O=C1c2c(O)c(=O)ccn2N([C@@H]2c3ccccc3SCc3c2ccc(F)c3F)[C@@H]2COCCN12", "tested on": "influenza A virus", "system": "A/WSN/33 (H1N1), BALB/c mouse, lung", "conditions": "subcutaneous, 0.0625 mg/kg every 6 h, 24 h", "quantity": "lung virus titre", "result": "3.91 log10 TCID50/mL"}
{"SMILES": "CS(=O)(=O)CCCn1c(Cn2c(=O)n(CC(F)(F)F)c3ccncc32)cc2cc(Cl)ccc21", "tested on": "respiratory syncytial virus", "assay": "RT-qPCR", "system": "hospitalized infants 1-24 months, nasal swab", "conditions": "oral, 6, 4.5 or 3 mg/kg daily, day 28, mid dose by age cohort", "how to read": "relative to: placebo", "quantity": "LS mean difference vs placebo", "result": "0.01 log10 copies/mL"}
{"SMILES": "COc1ccc(-n2nc(C(C)=O)s/c2=N\\N=C(/C)c2ccc(NC(C)=O)cc2)cc1", "tested on": "HepG2", "conditions": "5 µM", "quantity": "viability", "result": "6.18%"}
{"SMILES": "O=C(CCc1ccc(Br)cc1)N[C@H]1CCOC1=O", "tested on": "ExpR1 (Pectobacterium carotovorum)", "assay": "cellulase activity, agonist", "system": "Pectobacterium carotovorum, single-ExpR1 strain", "conditions": "200 µM, 4 h", "how to read": "relative to: OHHL", "quantity": "activation", "result": "3%"}
{"SMILES": "C[C@]1(CO)Cc2ncn(-c3ccc(C#N)c(Cl)c3)c2C(=O)O1", "assay": "aldosterone synthesis, inhibitor, item: potassium", "system": "healthy Japanese adults, urine", "conditions": "80 mg, 0-24 h at steady state, multiple rising dose", "quantity": "urinary excretion", "result": "29.6 mmol"}
{"SMILES": "C[C@H]1O[C@@H](O[C@H]2CC[C@@]3(C)[C@@H](CC[C@]4(C)[C@@H]3C=C[C@]35OC[C@@]6(CCC(C)(C)C[C@H]63)[C@@H](O)C[C@]54C)[C@]2(C)CO)[C@H](O)[C@@H](O[C@@H]2O[C@H](CO)[C@@H](O)[C@H](O)[C@H]2O)[C@H]1O", "system": "Mus musculus, pair-fed, AAV8-TBG-SIRT1 shRNA hepatic SIRT1 knockdown, serum", "conditions": "oral, high dose, 5 h", "quantity": "triglycerides", "result": "0.765 mM and 0.567 mM and 0.679 mM and 1.17 mM and 0.984 mM and 1.14 mM"}
{"SMILES": "Cl.N=C(CC(O)c1cc2c(F)cc(F)cc2c2cc(C(F)(F)F)ccc12)Nc1ccc(Br)cc1 (centres unmarked)", "tested on": "Plasmodium berghei", "assay": "Peters test", "system": "ANKA, mice", "conditions": "oral, 4 x 50 mg/kg", "quantity": "mean survival time", "result": "30 days"}
{"SMILES": "O=[N+]([O-])c1cc2cc3ccc4oc([N+](=O)[O-])cc4c3cc2o1", "tested on": "Mycobacterium bovis BCG", "system": "1173 P2", "quantity": "MIC90", "result": "0.03 µg/mL"}
{"SMILES": "CN1CC[C@]23c4c5ccc(O)c4O[C@H]2[C@@H](O)C=C[C@H]3[C@H]1C5", "assay": "hot water tail withdrawal test", "system": "STZ-diabetic Sprague-Dawley rats", "conditions": "dose not given", "quantity": "time to peak effect", "result": "30 to 45 min"}
{"SMILES": "C#CC[C@@H](N)C(=O)N[C@H](CO)C(=O)N[C@@H](C(=O)N[C@H](CO)C(=O)N[C@H](CCC(=O)O)C(=O)N[C@@H](C(=O)N[C@H](CCC(N)=O)C(=O)N[C@H](CC(C)C)C(=O)N[C@H](CCSC)C(=O)N[C@H](Cc1c[nH]cn1)C(=O)N[C@H](CC(N)=O)C(=O)N[C@H](CC(C)C)C(=O)NCC(=O)N[C@H](CCCCN)C(=O)N[C@H](Cc1c[nH]cn1)C(=O)N[C@H](CC(C)C)C(=O)NCC(=O)N[C@H](CO)C(=O)N[C@H](CCSC)C(=O)N[C@H](CCC(=O)O)C(=O)N[C@H](CCCNC(=N)N)C(=O)N[C@@H](C(=O)N[C@H](Cc1ccccc1)C(=O)N[C@H](C)C(=O)N[C@H](CC(C)C)C(=O)N[C@H](CCCNC(=N)N)C(=O)N[C@H](Cc1ccccc1)C(=O)N[C@H](CCCCN)C(=O)N[C@H](CC(C)C)C(=O)N[C@H](CCC(N)=O)C(=O)N[C@H](CC(C)C)C(=O)N[C@@H](C(N)=O)[C@H](C)CC)C(C)C)[C@H](C)CC)C(C)C", "tested on": "hemagglutinin influenza A/California/07/2009 H1N1", "quantity": "IC50", "result": "124 µM"}
{"SMILES": "Cc1cn(-c2cc(NC(=O)c3ccc(C)c(Nc4nccc(-c5cccnc5)n4)c3)cc(C(F)(F)F)c2)cn1", "system": "Alzheimer's disease patients", "conditions": "150 mg, 6 months, group mean", "how to read": "direction not given", "quantity": "ADCS-ADL score", "result": "56.2 ± 12.5"}
{"SMILES": "CC(C)N1CCC(NC2CCN(c3cccc(-c4cc5cc(F)ccc5[nH]4)c3)CC2)CC1", "tested on": "UACC-62", "quantity": "CC50", "result": "6.74 µM"}
{"SMILES": "COc1c(CCC[P+](c2ccccc2)(c2ccccc2)c2ccccc2)cc2c(c1OC)OCO2.[I-]", "tested on": "SNB-19", "assay": "SRB", "quantity": "TGI", "result": "-4.89 log M"}
{"SMILES": "CCCCC1(CCCC)CN(c2ccccc2)c2cc(SC)c(OCC(=O)N[C@@H](C(=O)NCC(=O)O)c3ccccc3)cc2S(=O)(=O)C1", "assay": "item: HDL cholesterol", "system": "human, serum", "conditions": "2.5 mg once daily, day 1", "quantity": "serum HDL-C", "result": "57 mg/dL"}
{"SMILES": "COc1cc(CCC[P+](c2ccccc2)(c2ccccc2)c2ccccc2)c(OC)c2c1OCO2.[I-]", "tested on": "UACC-62", "assay": "SRB", "quantity": "TGI", "result": "-5.37 log M"}
{"SMILES": "CC[C@H](C)[C@H](NC(=O)[C@H](C)NC(=O)[C@H](CCCCN)NC(=O)[C@H](CC(C)C)NC(=O)[C@H](C)NC(=O)[C@@H](NC(=O)[C@H](Cc1c[nH]cn1)NC(=O)[C@H](CC(C)C)NC(=O)[C@@H](NC(=O)[C@@H](NC(=O)[C@H](CCCCN)NC(=O)[C@H](C)NC(=O)[C@H](C)NC(=O)[C@H](CO)NC(=O)[C@H](CCCCN)NC(=O)[C@H](Cc1ccccc1)NC(=O)[C@@H](NC(=O)[C@H](CCCCN)NC(=O)[C@H](CC(C)C)NC(=O)[C@H](Cc1ccccc1)NC(=O)[C@H](CO)NC(=O)[C@H](CCCCN)NC(=O)[C@H](Cc1c[nH]c2ccccc12)NC(=O)[C@H](CCCCN)NC(C)=O)[C@@H](C)O)[C@@H](C)O)C(C)C)[C@@H](C)O)C(=O)N[C@@H](CO)C(=O)N[C@@H](CO)C(N)=O", "tested on": "Klebsiella pneumoniae", "conditions": "40 strains", "quantity": "MBC50", "result": "8 µg/mL"}
{"SMILES": "CC[C@H](C)[C@@H]1NC(=O)[C@@H]2CCCN2C(=O)[C@H](CC(C)C)NC(=O)[C@H](CC(C)C)NC(=O)CNC(=O)[C@@H](NC(=O)[C@@H](NC(=O)[C@H](CC(=O)O)NC(=O)CNC(=O)[C@@H](NC(=O)[C@H](C)NC(=O)CNC(=O)[C@H](CCCCN)NC(=O)[C@H](CC(C)C)NC(=O)[C@H](CC(C)C)NC(=O)[C@H](CCCCN)NC(=O)CNC(=O)[C@@H](NC(=O)[C@@H](N)CC(C)C)C(C)C)C(C)C)C(C)C)CSSC[C@@H](C(=O)O)NC1=O", "assay": "RNA-seq, item: Hcls1", "system": "mouse, traumatic brain injury model, frontal cortex and hippocampus", "conditions": "dose not given", "how to read": "relative to: TBI alone", "quantity": "log2 fold change", "result": -2.03}
{"SMILES": "CC[C@@H](NC(=O)CNC(=O)[C@@H](Cc1ccccc1)NC(=O)CNC(=O)[C@H](N)CCC(N)=O)C(=O)N[C@H](CC(=O)O)C(=O)N[C@H](CCC(=O)O)C(=O)N[C@H](CCSC)C(=O)N[C@H](CC(C)C)C(=O)N[C@H](CCC(N)=O)C(=O)NCC(=O)N[C@H](Cc1ccccc1)C(=O)N[C@H](C)C(=O)N[C@@H](C(=O)N[C@H](C)C(=O)N[C@H](CC)C(=O)N[C@H](CCCCN)C(=O)N[C@H](CCSC)C(=O)NCC(=O)N[C@H](C)C(=O)N[C@H](Cc1ccc(O)cc1)C(=O)N[C@H](CCCCN)C(=O)N[C@H](C)C(=O)N[C@H](Cc1c[nH]c2ccccc12)C(=O)O)C(C)C", "tested on": "hemagglutinin influenza A/California/07/2009 H1N1", "quantity": "IC50", "result": "30 µM"}
{"note": "Repeated from above:"}
{"SMILES": "CC[C@H](C)[C@@H]1NC(=O)[C@@H]2CCCN2C(=O)[C@H](CC(C)C)NC(=O)[C@H](CC(C)C)NC(=O)CNC(=O)[C@@H](NC(=O)[C@@H](NC(=O)[C@H](CC(=O)O)NC(=O)CNC(=O)[C@@H](NC(=O)[C@H](C)NC(=O)CNC(=O)[C@H](CCCCN)NC(=O)[C@H](CC(C)C)NC(=O)[C@H](CC(C)C)NC(=O)[C@H](CCCCN)NC(=O)CNC(=O)[C@@H](NC(=O)[C@@H](N)CC(C)C)C(C)C)C(C)C)C(C)C)CSSC[C@@H](C(=O)O)NC1=O", "assay": "RNA-seq, item: Hcls1", "system": "mouse, traumatic brain injury model, frontal cortex and hippocampus", "conditions": "dose not given", "how to read": "relative to: TBI alone", "quantity": "log2 fold change", "result": -2.03}
{"SMILES": "CCCCC1(CCCC)CN(c2ccccc2)c2cc(SC)c(OCC(=O)N[C@@H](C(=O)NCC(=O)O)c3ccccc3)cc2S(=O)(=O)C1", "assay": "item: HDL cholesterol", "system": "human, serum", "conditions": "2.5 mg once daily, day 1", "quantity": "serum HDL-C", "result": "57 mg/dL"}
